Measurements pooled from the literature.
“And” joins repeats or separate records; there may be more than shown. ≈ marks a conversion by molar mass, not a printed value.

SMILES = CN[C@H](CC(C)C)C(=O)N[C@H]1C(=O)N[C@@H](CC(N)=O)C(=O)N[C@H]2C(=O)N[C@H]3C(=O)N[C@H](C(=O)N[C@H](C(=O)O)c4cc(O)cc(O)c4-c4cc3ccc4O)[C@H](O)c3ccc(c(Cl)c3)Oc3cc2cc(c3O[C@@H]2O[C@H](CO)[C@@H](O)[C@H](O)[C@H]2O[C@H]2C[C@](C)(N)[C@H](O)[C@H](C)O2)Oc2ccc(cc2Cl)[C@H]1O; target or system = Staphylococcus epidermidis; test = broth microdilution; system = methicillin-susceptible clinical isolates; measurement = MIC range; result = 1 µg/mL (≈ 0.69 µM)
SMILES = CN[C@H](CC(C)C)C(=O)N[C@H]1C(=O)N[C@@H](CC(N)=O)C(=O)N[C@H]2C(=O)N[C@H]3C(=O)N[C@H](C(=O)N[C@H](C(=O)O)c4cc(O)cc(O)c4-c4cc3ccc4O)[C@H](O)c3ccc(c(Cl)c3)Oc3cc2cc(c3O[C@@H]2O[C@H](CO)[C@@H](O)[C@H](O)[C@H]2O[C@H]2C[C@](C)(N)[C@H](O)[C@H](C)O2)Oc2ccc(cc2Cl)[C@H]1O; target or system = Staphylococcus epidermidis; system = methicillin-resistant, 10 isolates; setting = pH 8.5; measurement = MIC50; result = 2 µg/mL (≈ 1.38 µM)
SMILES = c1ccc(CN(CCN(Cc2ccccn2)Cc2ccccn2)Cc2ccccn2)nc1; target or system = Staphylococcus epidermidis; test = Calgary Biofilm Device; system = MRSE 35984, established biofilm; setting = 24 h; measurement = MBEC; result = > 2000 µM
SMILES = Cc1c2c(nn1C)CSCc1cc(n(C)n1)CSc1cc(c3ccccc3c1)OCCCc1c(C(=O)O)n(C)c3c-2c(Cl)ccc13; target or system = Staphylococcus epidermidis; test = broth microdilution; system = 1457; measurement = MIC; result = 6.25 µM (≈ 4.2 µg/mL)
SMILES = CC[C@H]1OC(=O)[C@H](C)[C@@H](O[C@H]2C[C@@](C)(OC)[C@@H](O)[C@H](C)O2)[C@H](C)[C@@H](O[C@@H]2O[C@H](C)C[C@H](N(C)C)[C@H]2O)[C@](C)(O)C[C@@H](C)C(=O)[C@H](C)[C@@H](O)[C@]1(C)O; target or system = Staphylococcus epidermidis; system = 1; measurement = MIC; result = > 100 µM
SMILES = OB(O)c1csc2ccccc12; target or system = Staphylococcus epidermidis; setting = 100 µM, 10 h; scale = reference: untreated; measurement = growth; result = 94.5% and 93.7% and 104% and 103% and 94.7%
SMILES = CN[C@H](CC(C)C)C(=O)N[C@H]1C(=O)N[C@@H](CC(N)=O)C(=O)N[C@H]2C(=O)N[C@H]3C(=O)N[C@H](C(=O)N[C@H](C(=O)O)c4cc(O)cc(O)c4-c4cc3ccc4O)[C@H](O)c3ccc(c(Cl)c3)Oc3cc2cc(c3O[C@@H]2O[C@H](CO)[C@@H](O)[C@H](O)[C@H]2O[C@H]2C[C@](C)(N)[C@H](O)[C@H](C)O2)Oc2ccc(cc2Cl)[C@H]1O; target or system = Staphylococcus epidermidis; system = 9397, female ICR mice, peritonitis, blood; setting = dose not given; measurement = bacterial load; result = 5.27 log CFU and 4.87 log CFU and 3.98 log CFU and 4.26 log CFU and 5.88 log CFU and 4.42 log CFU
SMILES = O=[N+]([O-])c1ccc2c(N=Nc3c(O)ccc4ccccc34)c(O)cc(S(=O)(=O)O)c2c1; target or system = Staphylococcus epidermidis; system = LB medium; setting = 50 µM, 50% growth delay; measurement = growth delay; result = 1.6 h
SMILES = CC(=O)NC[C@H]1CN(c2ccc(N3CCOCC3)c(F)c2)C(=O)O1; target or system = Staphylococcus epidermidis; system = methicillin-resistant, 10 isolates; setting = serum 75%; measurement = MIC50; result = 4 µg/mL (≈ 11.9 µM)
SMILES = NC(=O)C1CCCc2c1[nH]c1ccc(Cl)cc21 (racemic); target or system = OCI-Ly1; setting = 1 µM, 120 h; measurement = viability; result = 137%
SMILES = NC[C@H]1O[C@H](O[C@H]2[C@H](O)[C@@H](O[C@H]3O[C@H](CO)[C@@H](O)[C@H](N)[C@H]3O)[C@H](N)C[C@@H]2N)[C@H](N)C[C@@H]1O; target or system = Staphylococcus epidermidis; system = 1; measurement = MIC; result = 1.56 µM (≈ 0.729 µg/mL)
SMILES = Nc1nc(OCc2cc(Br)cs2)c2[nH]cnc2n1; target or system = OCI-Ly1; setting = 1 µM, 120 h; measurement = viability; result = 91.3%
SMILES = CN(C)[C@@H]1C(O)=C(C(N)=O)C(=O)[C@@]2(O)C(O)=C3C(=O)c4c(O)cccc4[C@@](C)(O)[C@H]3C[C@@H]12; target or system = Staphylococcus epidermidis; system = 1; measurement = MIC; result = 25 µM (≈ 11.1 µg/mL)
SMILES = CC[C@H]1OC(=O)[C@H](C)[C@@H](O[C@H]2C[C@@](C)(OC)[C@@H](O)[C@H](C)O2)[C@H](C)[C@@H](O[C@@H]2O[C@H](C)C[C@H](N(C)C)[C@H]2O)[C@](C)(O)C[C@@H](C)/C(=N\OCOCCOC)[C@H](C)[C@@H](O)[C@]1(C)O; target or system = Staphylococcus epidermidis; measurement = MIC50; result = 16 µg/mL (≈ 19.1 µM)
SMILES = Oc1c(Br)cc(Br)c2nc3c(F)cccc3nc12; target or system = Staphylococcus epidermidis; test = broth microdilution; system = methicillin-resistant 35984; measurement = MIC; result = 0.78 µM (≈ 0.29 µg/mL)
SMILES = COc1c(N2C[C@@H]3CCCN[C@@H]3C2)c(F)cc2c(=O)c(C(=O)O)cn(C3CC3)c12; target or system = Staphylococcus epidermidis; test = broth microdilution; system = methicillin-resistant isolates; measurement = MIC50; result = 1 µg/mL (≈ 2.49 µM)
